Experimental data gathered from unrelated publications.
A part holds a random share of what one study measured.

Set 1
Target: Interferon regulatory factor 5, full length, phosphomimetic (IRF5, Homo sapiens, UniProt Q13568-2, residues 1-514, K96S/S451D/S453D/S456D/S462D)
Technique: protein-binding microarray
Form: double-stranded DNA, one strand shown
Sample: in vitro
Tested at: 250 nM
Notes: 60-bp whole probe
Together with: salmon DNA 0.4 mg/ml
Reference: random background probes
Reading: higher = stronger binding
Endpoint: log fluorescence
Shared flanks, not repeated: GCCTAGCAC … GTCTTGATTCGCTTGACGCTGCTG
TTAGGTTTCCTTCTCCTATAGTGCTAG: 1.33 z-score
GACGGACTGCTTTTCCTGTCGTGCTAG: 0.211 z-score
TCATCTCAGAATCTCTCACTGTGCTAG: 0.676 z-score
TTAGGATTGGACTATCGGTTAGTGCTA: 5.55 z-score
GACGATCTAAGTCTCGAGACGTGCTAG: -0.035 z-score
TTAGATTTCAGTTTCGAATAGTGCTAG: 7.76 z-score
TTAGCTTTCGGTTCCGGTTAGTGCTAG: 10.8 z-score
GACTTTTTACCTGTGGTGTAGTGCTAG: 0.303 z-score
GTCGGACTGCTTTTCCTGACGTGCTAG: -0.105 z-score
TCAAATTTACTTTGGTTACTGTGCTAG: 0.402 z-score
GACGGATTCCTTCTCCTGACGTGCTAG: -0.0625 z-score
TTAGGTTTAGGTCTCGGTTAGTGCTAG: 0.482 z-score
TTAGGTATGGGGTATCGGTTAGTGCTA: 2.47 z-score
TATAGCTGATACATATAGCCGTGCTAG: 0.0377 z-score
TTAAGTATCGGACTGGGTTAGTGCTAG: 2.69 z-score
GACGGTTCCGGTTTCGGTACGTGCTAG: 8.09 z-score
GCTCCTCTTTTTTTGGTAATGTGCTAG: 0.534 z-score
CTGACATGTAAATGTGACATGTGCTAG: 0.17 z-score
TTAGATCTCGGTTTCGATTAGTGCTAG: 8.15 z-score
GTCGGTTTCGGACTGGGGACGTGCTAG: 5.04 z-score
GAAATTTTCCCCTACTGTATGTGCTAG: 1.72 z-score
TCAAATTCCTGAAATCTCACTGTGCTA: 0.477 z-score
TTAGGTCTCGTTTTCCTTTAGTGCTAG: 0.771 z-score

Set 2
Target: Sal-like protein 4, full length isoform B (SALL4, Homo sapiens, UniProt Q9UJQ4-2, residues 1-616)
Technique: universal PBM
Form: double-stranded DNA, one strand shown
Sample: in vitro
Tested at: not given
Notes: 8-mer, flanks averaged, mean of replicates
Reading: higher = stronger binding
Endpoint: E-score
AGGGGCAC: -0.153
AATGTTTG: 0.185
CGCTTGAG: -0.0484
GAAGTTGA: -0.126
AAGCGAAG: -0.0468
CCATGTTA: 0.163
AAGTTAAT: 0.295
ACCAAGCG: -0.272
ACTGAGCC: -0.171
ACCTAAAG: -0.0234
ATAAGTTC: 0.248
ACGTAAGT: 0.108
AGAGATCA: -0.0448
CAACCAAG: -0.0737
ATGTAAAA: 0.304
ATGGCTCA: -0.068
CAACTATG: 0.166
ACAGTTAC: 0.134
CTCCAGGC: -0.25
ATTAGCGG: -0.112
GGGGCAGA: -0.138
CCTCGACA: -0.0276
ATAGACAC: 0.0624
CAGAGCGA: -0.148
ATGTGCGC: -0.0452

Set 3
Target: RING finger protein unkempt homolog, zinc fingers 1-6, GST-SBP tag (UNK, Homo sapiens, UniProt Q9C0B0, residues 30-357)
Sequence of UniProt Q9C0B0 (30-357, looked up): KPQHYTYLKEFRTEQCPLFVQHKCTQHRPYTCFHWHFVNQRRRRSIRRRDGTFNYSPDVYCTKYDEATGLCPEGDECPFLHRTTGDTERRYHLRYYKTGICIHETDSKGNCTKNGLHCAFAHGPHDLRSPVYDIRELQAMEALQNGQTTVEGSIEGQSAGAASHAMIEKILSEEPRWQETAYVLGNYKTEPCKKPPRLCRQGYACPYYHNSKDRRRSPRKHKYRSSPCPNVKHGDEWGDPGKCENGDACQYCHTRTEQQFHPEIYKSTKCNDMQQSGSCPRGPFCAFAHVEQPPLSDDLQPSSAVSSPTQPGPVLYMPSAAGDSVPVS
Technique: RNA Bind-n-Seq
Form: RNA
Sample: in vitro
Tested at: not given
Notes: RNA with constant flanks, human and mouse sites, ends assumed
Reference: input RNA pool
Reading: higher = stronger binding
Endpoint: bound/input enrichment
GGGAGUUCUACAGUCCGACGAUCGCAAUCAGGCUGUAUGAACGAGGUGACGCAUCCAAAGAAGACAUUGACACUGCUAUGAAAUUAGGAGCCGGUUACCCCAUGGGCCCAUUUGAGCUUCUAGAUUAUGUCGGACUGGAUACUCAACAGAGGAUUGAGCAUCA: 0.247 ratio
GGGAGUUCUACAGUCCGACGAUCGUCUGCAAAAUGGCUCAAACCAGUUUACUGCAAGGGAAGCAGUUUUACUGUAGGGAGUGGGUUUUCCACAAGCUUCAGCAUUGCCUCCAGGAGAAAAGUAACUGCUGCAAUAGUGCUGUCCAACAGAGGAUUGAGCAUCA: 0.266 ratio
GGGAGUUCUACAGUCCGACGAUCGAUCCAAUGUUGCUGCAGUUUUUCAAGUCUCAAGGUUAUAGGGAUGGCCCAGGUAAUCCUCUUAGACAUAAUUAUGAAGGUACUUUAAGAGAUCUUCUACAGUUCUUCAAGCCUAGACAACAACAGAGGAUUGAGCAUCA: 0.807 ratio
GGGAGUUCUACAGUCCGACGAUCUUGAGACCUCUGACACCAUAGAAAAUUUUAAUUGGGCUGCUACACUAAGAUAAUGUGCAAUUAUGAAGGCUCUUCCUUGGCUAGGUGUAGCUGCUUGCAUUUCCCAUCUGUUCUUGGCUUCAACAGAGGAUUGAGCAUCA: 4.98 ratio
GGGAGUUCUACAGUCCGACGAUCGAAUUUCAGGAAUAUACCAUGCUGUGUCUGUUGUGUGGCAAAGCUGAAGAUACUAUCAGUAUUCUCCCUGAUGACCCCCGGCAGAUGACUCUGCUGUUCUAAGCCUCCCAUGGUUCUCUUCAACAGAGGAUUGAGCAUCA: 0.197 ratio
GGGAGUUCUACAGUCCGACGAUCGAAUAUAUAGAUCAAGGUCGAAAUCCCCAGCUCUACACCAAAGAGUGCCUGGAGAGGGCUCUAGCUAAAAAUGAGCAAGUUAAAGGCAAGAUCGACACCAUGAAGAAAUUUAAAAGCCUGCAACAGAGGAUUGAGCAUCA: 0.247 ratio
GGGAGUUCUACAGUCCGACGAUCUCAAGAGAUGAUGGCUUUGUUGUCAGAAUAUUUGCCACAAGCACUGAACCUGUUCUACAGCAAGAAUUGCAACUUAAACUGGCUAGAAAAUGCUUACAUGCCUGUGGUAUCUCACUAUUCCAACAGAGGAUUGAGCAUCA: 0.163 ratio
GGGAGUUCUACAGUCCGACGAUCAACAGUGCAGAAGAGUUAGAAGGUCUUAUUGCUGAUCCUGAUGAGAUGAGAAUGCAAGCGCUGUUAAUUAGAGAACGGAUUCUUGGUCCUUCUCAUCCCGAUACCUCUUACUACAUUAGACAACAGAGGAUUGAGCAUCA: 0.326 ratio
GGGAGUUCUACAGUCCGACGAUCAUGAUGAUUUUCAUUGAAGCAUCUUCAGAAAAUCCUUGUAGUCUUUACUCUUCUGUCUGUUACAGCCCCCAAGCAGAAAAAGUUUACAAGUUAUGUAGCCCACCAGCUGAUUUGCAUAAGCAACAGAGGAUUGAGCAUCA: 0.252 ratio
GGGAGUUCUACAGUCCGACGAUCAUGGAGGAGAACCAGCUAAAGAGCGAAAUGCAAGACGCCAAGGACCAGAACGAGCUGUUAGAAUUCAGAGUGCUAGAACUCGAAGUAAGAGACUCUAUCUGUUGUAAGCUCUCAAACGGACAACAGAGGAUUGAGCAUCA: 0.157 ratio
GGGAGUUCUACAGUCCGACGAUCGGUUCAAGUGAUUUAUUAUGUGACUUGAAUACAAGUUCUUAUGACACUUCUGCUCUUUGUAAUGGCUUUCCUUUGGAAAAUAUAUGUACCCAGGUCAUAGACCAGAAUCAGAAUUUACAUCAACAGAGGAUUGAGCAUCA: 0.113 ratio

Set 4
Target: RNA binding protein fox-1 homolog 2, RRM domain, GST-SBP tag (RBFOX2, Homo sapiens, UniProt O43251-10, residues 100-194)
Technique: RNA Bind-n-Seq
Form: RNA
Sample: in vitro
Tested at: 365 nM
Notes: natural RNA segment, single round, ends assumed
Reference: no-protein control
Reading: higher = stronger binding
Endpoint: RBNS enrichment (R)
Target sequence (chain): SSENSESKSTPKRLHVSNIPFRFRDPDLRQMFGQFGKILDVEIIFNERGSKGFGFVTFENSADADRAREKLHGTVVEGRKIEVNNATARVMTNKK
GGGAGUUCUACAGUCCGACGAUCGUUGGUGAUGUCAUGAUGCACAGAAGUCCCAUGUGGAGUGUUUUUCCCACACUGACAACUUGGCUUCCUUUCUGUGUGUUCAGUCUGUUGUCUGAACUAACACUCCCGCGUGGAAUUCUCGGGUGCCAA: 0.372
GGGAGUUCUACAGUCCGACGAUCGACUAGAGAGAAGCCUCCUGCUCCCCUCGCCUGCACACCCCCUUUCAGAGGGCCACUGGGUUAGGACCUGAGGACCUCACUUGGCCCUGCAAGGCCCGCUUUUCAGGGACUGGAAUUCUCGGGUGCCAA: 0.572
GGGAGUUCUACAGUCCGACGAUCCAGCCAUUAGGUUGAAAGUAUAUAUUUAUCAUAUAAAACUUGAUGCGUUUUGCACUACUCUUUCCAUUUAUAUGCUGCAAACAACUACAGUCUUUGAAAUAUGGAAAAUCUGGAAUUCUCGGGUGCCAA: 0.319
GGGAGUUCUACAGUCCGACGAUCAGGAUGGCUCCUCCGGUGUCGUGUUCUCUACCUAUAGAGCCAGCUCUGAAUGGAUGUGUUACCAGAAGCAUUUUAGCUACAGCCUAGAAAAUGACAUUGUGAACACAGUAUGGAAUUCUCGGGUGCCAA: 0.362
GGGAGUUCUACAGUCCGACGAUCUGGAGGCUGUGGGGUGUAACUUUGGGUUUGUAUUUUUUCUGCUCAUCUUUCUGCCUGUCACCGGGUGUGCUGUUUUUCUGAAAAAAAAACAGGCCCCAAGGGCCCUGAGCUGGAAUUCUCGGGUGCCAA: 0.381
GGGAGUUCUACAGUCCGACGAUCAUUCUCUGCUGGGCGGGUGGGGAAGCAGCUCUACCCUUCCCUACCCCUCCCUGCCCCAACUCUGACUUCGAAUAAGCCUUGGUCCUAUCCAGAAUACACUGGACACCAAGUGGAAUUCUCGGGUGCCAA: 0.314
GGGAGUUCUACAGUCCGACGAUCACUAAUUAUUAUUUUAAAAUAUAUGAAGACAAUAAUUCUACAUGUUGUCUUAAGAUGGAAAUACAGUUAUUUCAUCUUUUAUUCAAGGAAGUUUUAACUUUAAUACAGCUUGGAAUUCUCGGGUGCCAA: 0.749
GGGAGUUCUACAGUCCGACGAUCUAAAAUCUCAUUACUAUCUAUUAUUUAGUUCUAACACAGAAGCUUUAAAAAUACAUAGUCAUCCAAGGUUUUCUAAAAAUUGAAAUCAUAUGUUGGGAAUGGUAAAAAGGUGGAAUUCUCGGGUGCCAA: 0.496
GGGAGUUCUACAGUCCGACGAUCCCCGGUAGACGGGCACCCCGAGAUGUACCAACCUUUUCAUGUAUUCUGCCAAAAGCAUUGUUUUCCAGGGCCCUUGACCAACAUCGGCUUCCCCAGUCCAGGGCUCCCCUUGGAAUUCUCGGGUGCCAA: 0.684
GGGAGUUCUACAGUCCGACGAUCGCAGUCAGCCCCUUCAAGUCUGGACAGCCCUGGAGUUCUGGUCCCCUCUCCUAGCACUGUACCUUUACCCAGCGAGUCCCCACACUGUGGUCUUCUUGCACAGUGUGUGGUGGAAUUCUCGGGUGCCAA: 0.418
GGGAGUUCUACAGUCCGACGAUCGAGAACACACUAAAGGACUCCUGAGUCACUACCACAGCCACCUGGAAACCACAAGGCAUUUGAUGCUACCGUUCUGGUCAGGGAUUGGGCUGCUUCUUCAGUUCCUAAUAUGGAAUUCUCGGGUGCCAA: 0.407
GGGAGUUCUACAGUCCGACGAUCCAGCCCAAAAAGAGGUGCUUGUGAGCACACCCACCCAAGUGAACCCAGUGGCUGCCAUGGUCCUCUUCAGGCUCAGAGAUGGGUCUAGCCCUGGCCUUGCUCUGAUCAGCUGGAAUUCUCGGGUGCCAA: 0.387

Set 5
Target: PABPC1L2, full length, GST fusion (mouse, UniProt A0ABA7IW68)
Technique: RNAcompete
Form: RNA
Sample: in vitro
Tested at: 20 nM
Notes: 7-mer, probes averaged, single round
Reference: mean of 7-mers
Reading: higher = stronger binding
Endpoint: 7-mer Z-score
Construct (chain): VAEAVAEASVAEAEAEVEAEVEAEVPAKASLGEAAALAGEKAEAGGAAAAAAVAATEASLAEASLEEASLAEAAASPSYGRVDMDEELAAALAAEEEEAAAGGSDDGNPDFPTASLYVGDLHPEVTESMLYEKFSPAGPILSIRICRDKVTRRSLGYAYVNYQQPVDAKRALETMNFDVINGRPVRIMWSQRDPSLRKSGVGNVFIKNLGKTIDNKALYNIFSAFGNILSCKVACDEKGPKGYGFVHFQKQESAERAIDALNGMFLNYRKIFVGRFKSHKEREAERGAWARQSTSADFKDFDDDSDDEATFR
UCCGAGA: -0.115
GAGAGUU: -0.309
CUGUACC: -0.213
UUGGGUA: -0.0573
UCGAGGG: 0.162
CAUUGCC: -0.311
GAUCCUU: -0.353
GUGGAUA: 0.341
UAGGGCC: 0.0841
GGUGAGU: -0.316
ACGAUCA: -0.0337
CAUAUAG: -0.164
UCAUGUA: -0.246
ACCGUUC: -0.335
UGGCAGC: 0.0442
GUCAAUA: -0.238

Excerpt of the above (set 5):
UCCGAGA: -0.115
GAGAGUU: -0.309
CUGUACC: -0.213
UUGGGUA: -0.0573
UCGAGGG: 0.162
CAUUGCC: -0.311
GAUCCUU: -0.353
GUGGAUA: 0.341
UAGGGCC: 0.0841
